Measurements pooled from the literature.
A part holds a random share of what one study measured. Values joined by “and” are separate records of one study, mostly repeats; a detail may differ.
Chain of UniProt Q8N5S9 (whole entry, looked up): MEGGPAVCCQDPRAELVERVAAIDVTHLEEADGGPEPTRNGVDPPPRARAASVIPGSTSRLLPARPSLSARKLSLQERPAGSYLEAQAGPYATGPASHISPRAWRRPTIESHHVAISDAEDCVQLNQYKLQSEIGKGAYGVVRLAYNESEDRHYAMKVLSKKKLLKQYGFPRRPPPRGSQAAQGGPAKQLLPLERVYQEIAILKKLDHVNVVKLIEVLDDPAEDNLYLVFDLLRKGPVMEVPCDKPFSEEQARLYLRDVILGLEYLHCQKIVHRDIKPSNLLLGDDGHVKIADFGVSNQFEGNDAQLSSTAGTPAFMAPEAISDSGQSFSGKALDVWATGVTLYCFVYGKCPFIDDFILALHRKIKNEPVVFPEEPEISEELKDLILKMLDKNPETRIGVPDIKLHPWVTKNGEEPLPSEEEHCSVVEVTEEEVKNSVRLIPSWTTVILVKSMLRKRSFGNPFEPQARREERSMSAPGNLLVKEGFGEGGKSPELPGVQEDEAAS
Chain of UniProt Q15418 (whole entry, looked up): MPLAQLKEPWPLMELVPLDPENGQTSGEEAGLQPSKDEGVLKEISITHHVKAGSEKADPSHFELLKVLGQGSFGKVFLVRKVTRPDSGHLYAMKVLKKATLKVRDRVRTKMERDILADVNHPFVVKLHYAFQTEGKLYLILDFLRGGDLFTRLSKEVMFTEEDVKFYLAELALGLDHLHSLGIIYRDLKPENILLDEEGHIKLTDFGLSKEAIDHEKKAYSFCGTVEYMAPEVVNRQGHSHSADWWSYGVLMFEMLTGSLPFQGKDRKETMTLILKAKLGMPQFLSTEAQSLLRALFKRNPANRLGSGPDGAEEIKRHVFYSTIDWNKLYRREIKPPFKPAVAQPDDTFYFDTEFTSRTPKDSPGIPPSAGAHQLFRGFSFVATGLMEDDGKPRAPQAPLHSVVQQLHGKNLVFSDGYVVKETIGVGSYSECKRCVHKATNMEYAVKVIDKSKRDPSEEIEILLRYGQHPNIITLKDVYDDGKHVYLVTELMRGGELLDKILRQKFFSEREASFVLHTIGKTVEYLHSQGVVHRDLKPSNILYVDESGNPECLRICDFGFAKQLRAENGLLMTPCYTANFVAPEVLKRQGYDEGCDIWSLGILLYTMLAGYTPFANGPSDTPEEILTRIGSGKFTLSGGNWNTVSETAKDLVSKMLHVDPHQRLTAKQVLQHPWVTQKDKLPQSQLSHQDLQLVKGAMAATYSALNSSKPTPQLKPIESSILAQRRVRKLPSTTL
Chain of UniProt Q9H0K1 (whole entry, looked up): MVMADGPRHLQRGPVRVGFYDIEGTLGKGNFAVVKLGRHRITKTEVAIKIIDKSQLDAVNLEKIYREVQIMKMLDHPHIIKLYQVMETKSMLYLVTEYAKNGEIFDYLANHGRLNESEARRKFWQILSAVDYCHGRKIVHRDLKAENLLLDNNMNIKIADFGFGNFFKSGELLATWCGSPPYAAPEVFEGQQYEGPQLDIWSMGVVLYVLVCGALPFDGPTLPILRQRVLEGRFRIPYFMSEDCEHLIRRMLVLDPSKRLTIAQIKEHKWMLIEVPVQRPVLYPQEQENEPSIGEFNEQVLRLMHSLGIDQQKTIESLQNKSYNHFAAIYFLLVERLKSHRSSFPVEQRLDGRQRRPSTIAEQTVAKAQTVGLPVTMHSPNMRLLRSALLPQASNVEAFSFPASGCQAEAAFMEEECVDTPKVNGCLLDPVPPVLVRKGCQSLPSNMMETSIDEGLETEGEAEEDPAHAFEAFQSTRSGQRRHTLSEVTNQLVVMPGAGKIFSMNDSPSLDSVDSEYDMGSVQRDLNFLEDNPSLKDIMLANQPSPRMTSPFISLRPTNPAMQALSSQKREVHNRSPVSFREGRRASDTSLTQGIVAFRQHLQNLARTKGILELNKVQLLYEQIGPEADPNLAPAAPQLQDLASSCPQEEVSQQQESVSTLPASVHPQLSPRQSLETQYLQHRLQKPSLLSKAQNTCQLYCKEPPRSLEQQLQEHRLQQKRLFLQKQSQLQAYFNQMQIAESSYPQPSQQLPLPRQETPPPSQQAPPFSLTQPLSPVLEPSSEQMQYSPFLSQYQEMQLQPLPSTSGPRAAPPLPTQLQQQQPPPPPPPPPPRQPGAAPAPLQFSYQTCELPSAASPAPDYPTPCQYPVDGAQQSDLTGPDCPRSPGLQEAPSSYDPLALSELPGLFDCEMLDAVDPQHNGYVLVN
Chain of UniProt Q9UF33 (whole entry, looked up): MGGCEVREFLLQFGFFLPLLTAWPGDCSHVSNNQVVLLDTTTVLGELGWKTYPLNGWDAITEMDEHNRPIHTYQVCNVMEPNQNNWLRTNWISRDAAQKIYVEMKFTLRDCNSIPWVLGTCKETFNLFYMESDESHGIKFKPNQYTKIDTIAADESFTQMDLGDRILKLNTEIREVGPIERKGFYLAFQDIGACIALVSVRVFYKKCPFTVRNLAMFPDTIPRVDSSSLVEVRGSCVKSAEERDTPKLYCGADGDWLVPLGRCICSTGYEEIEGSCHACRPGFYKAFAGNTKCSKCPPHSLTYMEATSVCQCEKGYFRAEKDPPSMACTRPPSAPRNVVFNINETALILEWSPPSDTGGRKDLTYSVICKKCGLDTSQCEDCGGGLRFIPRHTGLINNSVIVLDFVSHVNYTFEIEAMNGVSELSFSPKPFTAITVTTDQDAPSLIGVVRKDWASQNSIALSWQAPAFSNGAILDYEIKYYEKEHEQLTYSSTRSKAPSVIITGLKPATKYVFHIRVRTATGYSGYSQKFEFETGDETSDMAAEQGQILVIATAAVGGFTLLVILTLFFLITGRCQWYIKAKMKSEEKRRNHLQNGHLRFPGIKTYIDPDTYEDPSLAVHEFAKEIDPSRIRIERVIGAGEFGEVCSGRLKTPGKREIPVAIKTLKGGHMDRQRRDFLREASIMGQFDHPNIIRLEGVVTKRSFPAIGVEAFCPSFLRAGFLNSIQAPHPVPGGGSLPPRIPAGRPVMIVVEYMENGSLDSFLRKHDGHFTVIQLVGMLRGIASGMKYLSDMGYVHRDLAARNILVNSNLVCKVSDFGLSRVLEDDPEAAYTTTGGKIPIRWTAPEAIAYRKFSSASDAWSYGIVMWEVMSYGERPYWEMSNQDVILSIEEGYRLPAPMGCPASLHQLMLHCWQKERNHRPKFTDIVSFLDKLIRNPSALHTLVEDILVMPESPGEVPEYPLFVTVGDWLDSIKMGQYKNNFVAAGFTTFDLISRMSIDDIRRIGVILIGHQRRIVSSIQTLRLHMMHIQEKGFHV
Chain of UniProt Q13153 (whole entry, looked up): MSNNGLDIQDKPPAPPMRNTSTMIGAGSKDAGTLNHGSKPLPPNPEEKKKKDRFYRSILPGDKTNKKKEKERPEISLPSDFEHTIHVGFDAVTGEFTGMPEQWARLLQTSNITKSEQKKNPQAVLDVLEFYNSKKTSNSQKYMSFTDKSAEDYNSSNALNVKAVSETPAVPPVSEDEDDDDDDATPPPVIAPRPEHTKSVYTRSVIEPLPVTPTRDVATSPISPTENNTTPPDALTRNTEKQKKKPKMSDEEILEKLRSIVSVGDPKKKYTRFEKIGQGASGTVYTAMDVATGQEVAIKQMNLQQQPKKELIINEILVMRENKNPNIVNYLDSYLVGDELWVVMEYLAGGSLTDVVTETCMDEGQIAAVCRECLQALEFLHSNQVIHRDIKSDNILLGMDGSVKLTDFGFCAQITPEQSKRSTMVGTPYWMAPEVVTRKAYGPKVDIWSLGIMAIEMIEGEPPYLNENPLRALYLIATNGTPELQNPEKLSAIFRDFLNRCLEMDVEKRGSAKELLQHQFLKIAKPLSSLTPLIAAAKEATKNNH
Chain of UniProt P49760 (whole entry, looked up): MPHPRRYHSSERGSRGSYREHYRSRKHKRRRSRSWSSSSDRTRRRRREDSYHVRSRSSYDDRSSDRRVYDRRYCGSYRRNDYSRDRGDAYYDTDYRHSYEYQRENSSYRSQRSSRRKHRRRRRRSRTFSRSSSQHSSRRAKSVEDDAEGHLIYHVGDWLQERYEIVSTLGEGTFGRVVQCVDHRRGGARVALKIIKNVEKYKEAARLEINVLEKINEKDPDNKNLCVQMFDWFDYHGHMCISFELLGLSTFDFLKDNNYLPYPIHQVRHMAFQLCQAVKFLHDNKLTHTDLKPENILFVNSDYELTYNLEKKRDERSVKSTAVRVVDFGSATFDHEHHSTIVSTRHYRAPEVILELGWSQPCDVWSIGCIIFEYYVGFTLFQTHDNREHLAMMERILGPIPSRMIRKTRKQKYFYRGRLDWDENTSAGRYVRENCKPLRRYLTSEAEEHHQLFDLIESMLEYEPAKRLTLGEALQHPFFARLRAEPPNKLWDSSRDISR
Chain of UniProt Q9Y2U5 (whole entry, looked up): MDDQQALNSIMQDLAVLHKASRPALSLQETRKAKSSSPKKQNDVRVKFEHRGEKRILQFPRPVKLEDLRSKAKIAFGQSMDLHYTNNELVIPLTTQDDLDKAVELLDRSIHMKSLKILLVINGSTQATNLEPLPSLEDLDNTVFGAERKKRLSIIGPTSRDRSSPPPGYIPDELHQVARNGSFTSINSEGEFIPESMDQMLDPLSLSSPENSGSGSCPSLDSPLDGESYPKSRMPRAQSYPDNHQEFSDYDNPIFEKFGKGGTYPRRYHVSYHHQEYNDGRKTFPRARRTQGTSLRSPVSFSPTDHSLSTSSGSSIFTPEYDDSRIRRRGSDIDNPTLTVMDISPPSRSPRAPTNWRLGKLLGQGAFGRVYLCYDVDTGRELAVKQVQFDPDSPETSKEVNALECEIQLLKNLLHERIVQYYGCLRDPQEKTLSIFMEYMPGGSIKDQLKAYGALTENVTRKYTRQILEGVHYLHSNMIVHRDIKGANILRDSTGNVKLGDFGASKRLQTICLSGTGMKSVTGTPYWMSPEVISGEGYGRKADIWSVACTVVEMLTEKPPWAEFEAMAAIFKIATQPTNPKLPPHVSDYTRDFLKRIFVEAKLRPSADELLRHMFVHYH

Set 1 — host: mouse; matrix: microsomes or S9; tested at: 2 µM; time: 0.5 h
SMILES | remaining compound [%]
Cc1nc2c(c(C)c(C)n2CCC2CCO2)c(-c2cc(F)c3c(c2C)CCCO3)c1[C@H](OC(C)(C)C)C(=O)O (stereo partly drawn) | 45.1
O=S(=O)(Cc1ccccc1)N1CC[C@H](c2ccccc2)[C@H]2NCCCC[C@H]21 | 0.861
Cc1cccc(NC2=CC(c3cccs3)N(c3cccc(C)c3)C2=O)c1 (stereo not drawn) | 20.8
O=c1c(I)coc2cc(OC3CCCCO3)ccc12 (stereo not drawn) | 62.9
CN(C)c1ccc2c(c1)[C@H](CC(=O)c1ccccc1)C(C(=O)OCc1ccccc1)(C(=O)OCc1ccccc1)C[C@H]2c1ccccc1 | 54.1
O=S(=O)(c1ccc2c(c1)OCCO2)n1cnc2ccccc21 | 0.406
Cc1cc(C(=O)NCCCN2CCCC2=O)cs1 | 50.6
CC(Oc1cc(-n2nc3c(c2Cl)CCCC3)c(F)cc1Cl)C(=O)NCCO (stereo not drawn) | 33.6
c1ccc2c(c1)CCN(c1nnc(-n3cccc3)s1)C2 | 0.492
CCn1cc(NS(=O)(=O)c2cn(C)c(=O)n(C)c2=O)ccc1=O | 94.2
O=C1C2C3C=CC(O3)C2C(=O)N1Nc1ccccc1 (stereo not drawn) | 45.6
Cc1cc2nc(CN(C)c3ccccc3)cc(=O)n2o1 | 51.4
Cc1cc(C)n2nc(C(=O)N3CCCC34CC=CC4)cc2n1 | 45.2
CCN(c1ccccc1)c1nc(N(CC)c2ccccc2)[nH]c(=O)n1 | 68.5
Cn1ccnc1-c1[nH]c(-c2ccc(Cl)cc2)nc1-c1ccc(C(C)(C)C)cc1 | 8.23
CCCC1(CCC)c2cc(NC(=O)[C@@H]3CCCN3C(=O)OC(C)(C)C)ccc2-c2ccc(NC(=O)[C@@H]3CCCN3C(=O)OC(C)(C)C)cc21 | 19.2
CC(C)c1noc(CCCn2ccc(-c3ccc(-c4nnn[nH]4)cc3)n2)n1 | 79.9
CC1CCC(NS(=O)(=O)CC(=O)N2CCOCC2(C)C)CC1 (stereo not drawn) | 1.34

Set 2 — method: competition with immobilised ligand; tested at: 1 µM
Compound: CC1=C(C#N)[C@@H](c2ccc3[nH]nc(C)c3c2)C(C#N)=C(c2ccc(Cl)cc2)N1
target | assay | remaining binding [%]
G protein-coupled receptor kinase 3 (GRK3, Homo sapiens, UniProt P35626) | cell-free assay | 85.3
Serine/threonine-protein kinase PAK 4 (PAK4, Homo sapiens, UniProt O96013) | cell-free assay | 100
Tyrosine-protein kinase ABL1, phosphorylated (ABL1, Homo sapiens, UniProt P00519, F317L) | cell-free assay | 94.2
Mitogen-activated protein kinase kinase kinase 2 (MAP3K2, Homo sapiens, UniProt Q9Y2U5) | cell-free assay | 72.2
Testis-specific serine/threonine-protein kinase 1 (TSSK1B, Homo sapiens, UniProt Q9BXA7) | cell-free assay | 100
Tyrosine-protein kinase ABL1, phosphorylated (ABL1, Homo sapiens, UniProt P00519, E255K) | binding | 83.5
Cyclin-dependent kinase 16 (CDK16, Homo sapiens, UniProt Q00536) | cell-free assay | 88.9
Ribosomal protein S6 kinase alpha-1, C-terminal kinase domain (RPS6KA1, Homo sapiens, UniProt Q15418) | cell-free assay | 100
Serine/threonine-protein kinase OSR1 (OXSR1, Homo sapiens, UniProt O95747) | cell-free assay | 100
Tyrosine-protein kinase ABL1, non-phosphorylated (ABL1, Homo sapiens, UniProt P00519, Q252H) | cell-free assay | 43.8
Ribosomal protein S6 kinase alpha-1, N-terminal kinase domain (RPS6KA1, Homo sapiens, UniProt Q15418) | cell-free assay | 91.2
Cyclin-dependent kinase 4, with cyclin D1 (CDK4, Homo sapiens, UniProt P11802) | cell-free assay | 96.1
Serine/threonine-protein kinase pim-3 (PIM3, Homo sapiens, UniProt Q86V86) | cell-free assay | 100
Proto-oncogene tyrosine-protein kinase receptor Ret (RET, Homo sapiens, UniProt P07949, V804L) | cell-free assay | 96.4
Protein kinase C eta type (PRKCH, Homo sapiens, UniProt P24723) | cell-free assay | 96.1
Calcium/calmodulin-dependent protein kinase kinase 1 (CAMKK1, Homo sapiens, UniProt Q8N5S9) | cell-free assay | 93.7
Mitogen-activated protein kinase 7 (MAPK7, Homo sapiens, UniProt Q13164) | cell-free assay | 90
Tyrosine-protein kinase CSK (CSK, Homo sapiens, UniProt P41240) | cell-free assay | 100
Serine/threonine-protein kinase MARK2 (MARK2, Homo sapiens, UniProt Q7KZI7) | cell-free assay | 100

Set 3 — method: Incucyte 3D growth; tested at: 30 µM; reading: higher = more growth
SMILES: CC(C)(C(=O)O)[C@H](NC(=O)Cc1cccc(I)c1)c1ccc2oc(=O)[nH]c2c1
cell line | setting | spheroid area
MEL-JUSO | 204.52 h | 2.04e+07 a.u. and 2.07e+07 a.u. and 1.56e+07 a.u. and 1.71e+07 a.u. and 1.64e+07 a.u. and 1.51e+07 a.u.
NCI-H1437 | 186 h | 4.33e+07 a.u. and 6.86e+07 a.u. and 3.35e+07 a.u. and 6.53e+07 a.u. and 4.8e+07 a.u. and 3.62e+07 a.u.
NCI-H358 | 240 h | 9.28e+06 a.u. and 9.08e+06 a.u. and 8.7e+06 a.u. and 8.58e+06 a.u. and 1.09e+07 a.u. and 7.75e+06 a.u.
MEL-JUSO | 306.52 h | 4.04e+07 a.u. and 2.66e+07 a.u. and 2.23e+07 a.u. and 2.58e+07 a.u. and 2.65e+07 a.u. and 2.8e+07 a.u.
KP-4 | 150 h | 2.4e+07 a.u. and 2.18e+07 a.u. and 2.53e+07 a.u. and 1.68e+07 a.u. and 2.33e+07 a.u. and 2.03e+07 a.u.
MEL-JUSO | 492.52 h | 2.63e+07 a.u. and 5.13e+07 a.u. and 3.01e+07 a.u. and 7.26e+07 a.u. and 2.47e+07 a.u. and 1.86e+07 a.u.

Set 4 — SMILES: O=C1NC(=O)/C(=C/c2ccc3c(c2)OC(F)(F)O3)S1; observed: enzyme activity; action: inhibitor; tested at: 0.5 µM; reference: control
target | remaining activity [%]
Ephrin type-A receptor 6 (EPHA6, Homo sapiens, UniProt Q9UF33) | 83.1
Ribosomal protein S6 kinase alpha-3 (RPS6KA3, Homo sapiens, UniProt P51812) | 103
Insulin-like growth factor 1 receptor (IGF1R, Homo sapiens, UniProt P08069) | 101
SRSF protein kinase 1 (SRPK1, Homo sapiens, UniProt Q96SB4) | 105
Mitogen-activated protein kinase kinase kinase 20 (MAP3K20, Homo sapiens, UniProt Q9NYL2) | 97.6
Serine/threonine-protein kinase SIK2 (SIK2, Homo sapiens, UniProt Q9H0K1) | 101
Casein kinase I isoform epsilon (CSNK1E, Homo sapiens, UniProt P49674) | 96.9
Protein kinase C theta type (PRKCQ, Homo sapiens, UniProt Q04759) | 101
Calcium/calmodulin-dependent protein kinase kinase 1 (CAMKK1, Homo sapiens, UniProt Q8N5S9) | 86
Calcium/calmodulin-dependent protein kinase type 1 (CAMK1, Homo sapiens, UniProt Q14012) | 89.9
Dual specificity protein kinase CLK2 (CLK2, Homo sapiens, UniProt P49760) | 96.6
Serine/threonine-protein kinase PAK 6 (PAK6, Homo sapiens, UniProt Q9NQU5) | 103
Tyrosine-protein kinase JAK1 (JAK1, Homo sapiens, UniProt P23458) | 104
Muscle, skeletal receptor tyrosine-protein kinase (MUSK, Homo sapiens, UniProt O15146) | 70.9
Casein kinase I isoform delta (CSNK1D, Homo sapiens, UniProt P48730) | 98.9
Cyclin-dependent kinase 2, with cyclin E (CDK2, Homo sapiens, UniProt P24941) | 89.9
Serine/threonine-protein kinase PAK 1 (PAK1, Homo sapiens, UniProt Q13153) | 93.3
Dual specificity protein kinase CLK1 (CLK1, Homo sapiens, UniProt P49759) | 102
Ephrin type-A receptor 2 (EPHA2, Homo sapiens, UniProt P29317) | 96.3
Tyrosine-protein kinase receptor TYRO3 (TYRO3, Homo sapiens, UniProt Q06418) | 99.6
Tyrosine-protein kinase Tec (TEC, Homo sapiens, UniProt P42680) | 108
Vascular endothelial growth factor receptor 1 (FLT1, Homo sapiens, UniProt P17948) | 81.5
Serine/threonine-protein kinase Sgk2 (SGK2, Homo sapiens, UniProt Q9HBY8) | 82.2

Some of these lines once more (set 1):
SMILES | remaining compound [%]
c1ccc2c(c1)CCN(c1nnc(-n3cccc3)s1)C2 | 0.492
CN(C)c1ccc2c(c1)[C@H](CC(=O)c1ccccc1)C(C(=O)OCc1ccccc1)(C(=O)OCc1ccccc1)C[C@H]2c1ccccc1 | 54.1
CCCC1(CCC)c2cc(NC(=O)[C@@H]3CCCN3C(=O)OC(C)(C)C)ccc2-c2ccc(NC(=O)[C@@H]3CCCN3C(=O)OC(C)(C)C)cc21 | 19.2
CCn1cc(NS(=O)(=O)c2cn(C)c(=O)n(C)c2=O)ccc1=O | 94.2
O=S(=O)(c1ccc2c(c1)OCCO2)n1cnc2ccccc21 | 0.406
Cn1ccnc1-c1[nH]c(-c2ccc(Cl)cc2)nc1-c1ccc(C(C)(C)C)cc1 | 8.23
